Results collected from several papers.
A part holds a random share of what one study measured. Values joined by “and” are separate records of one study, mostly repeats; a detail may differ.
UniProt Q96RR4, sequence (whole entry, looked up): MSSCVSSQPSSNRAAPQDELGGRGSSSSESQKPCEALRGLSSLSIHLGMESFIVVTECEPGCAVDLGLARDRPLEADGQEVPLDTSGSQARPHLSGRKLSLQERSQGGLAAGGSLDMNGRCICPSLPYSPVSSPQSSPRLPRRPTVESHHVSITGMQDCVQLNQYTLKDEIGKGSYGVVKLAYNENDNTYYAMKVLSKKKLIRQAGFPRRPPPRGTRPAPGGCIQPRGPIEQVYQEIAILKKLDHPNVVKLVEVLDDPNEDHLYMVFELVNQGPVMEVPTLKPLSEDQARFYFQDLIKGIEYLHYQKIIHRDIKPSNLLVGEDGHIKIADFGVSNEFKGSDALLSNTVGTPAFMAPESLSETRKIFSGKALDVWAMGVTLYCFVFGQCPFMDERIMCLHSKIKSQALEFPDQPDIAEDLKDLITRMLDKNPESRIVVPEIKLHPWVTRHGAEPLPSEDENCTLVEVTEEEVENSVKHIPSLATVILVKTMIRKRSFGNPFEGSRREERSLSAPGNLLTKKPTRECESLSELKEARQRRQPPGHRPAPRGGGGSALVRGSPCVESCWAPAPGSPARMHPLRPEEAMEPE
UniProt Q9NRH2, sequence (whole entry, looked up): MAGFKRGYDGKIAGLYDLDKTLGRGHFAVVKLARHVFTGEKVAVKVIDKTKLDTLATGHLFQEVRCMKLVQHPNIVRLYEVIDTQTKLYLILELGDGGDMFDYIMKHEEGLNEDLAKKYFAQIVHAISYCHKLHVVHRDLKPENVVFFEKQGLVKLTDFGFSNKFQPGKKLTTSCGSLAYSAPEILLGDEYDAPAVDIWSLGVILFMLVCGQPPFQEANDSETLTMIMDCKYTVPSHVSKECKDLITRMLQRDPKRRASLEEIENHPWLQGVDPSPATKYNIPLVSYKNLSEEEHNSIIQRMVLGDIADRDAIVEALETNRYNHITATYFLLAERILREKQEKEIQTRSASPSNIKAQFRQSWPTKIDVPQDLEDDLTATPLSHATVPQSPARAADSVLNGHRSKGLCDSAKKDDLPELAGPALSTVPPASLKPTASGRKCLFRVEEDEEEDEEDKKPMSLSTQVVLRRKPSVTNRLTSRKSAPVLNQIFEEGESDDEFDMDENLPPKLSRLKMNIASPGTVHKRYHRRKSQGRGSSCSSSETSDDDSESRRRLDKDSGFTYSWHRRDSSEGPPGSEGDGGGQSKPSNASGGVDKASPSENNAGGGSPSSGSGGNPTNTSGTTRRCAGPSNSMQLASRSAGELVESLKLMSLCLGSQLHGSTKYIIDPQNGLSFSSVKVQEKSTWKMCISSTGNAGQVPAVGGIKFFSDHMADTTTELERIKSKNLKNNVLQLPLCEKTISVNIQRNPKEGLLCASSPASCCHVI

Study 1 — method: Phase 2a trial; refers to: influenza like illness; host: idiopathic pulmonary fibrosis patients
Structure (SMILES): CC(C)n1cnc(-c2ccc(F)cc2)c1-c1ncc(C(=O)Nc2ccc(N3CCN(C)CC3)cc2)[nH]1
setting	patients with adverse events [%]
60 mg once daily, grade 2 maximum intensity	0
30 mg once daily, grade 1 maximum intensity	0
60 mg once daily, grade 5 maximum intensity	0

Other studies, line by line
SMILES	target or system	test	setting	scale	endpoint	result
CCNC(=O)[C@H]1O[C@@H](n2cnc3c(N)ncnc32)[C@H](O)[C@@H]1O	mouse MPNST tumor cells	high-content immunofluorescence imaging, refers to: nuclear SOX9	10 µM, 12 h, mean of 2 replicates	baseline: DMSO control, higher = more nuclear SOX9	nuclear SOX9 intensity	100 % of DMSO
COC(=O)[C@]1(O)C[C@@H]2O[C@@]1(C)n1c3ccccc3c3c4c(c5c6ccccc6n2c5c31)C(=O)NC4	CAMKK2 (Homo sapiens, UniProt Q96RR4)	enzyme activity, inhibitor	0.5 µM	baseline: control	remaining activity	6.55%
C=C1CC[C@@]2(O)[C@H]3Cc4ccc(O)c5c4[C@@]2(CCN3CC2CC2)[C@H]1O5	mouse MPNST tumor cells	high-content immunofluorescence imaging, refers to: nuclear SOX9	10 µM, 12 h, mean of 2 replicates	baseline: DMSO control, higher = more nuclear SOX9	nuclear SOX9 intensity	103 % of DMSO and 82 % of DMSO
O=C(NCc1ncc(C(F)(F)F)cc1Cl)c1ccc2c(c1)C1(CCS(=O)(=O)CC1)[C@@H](C1CC1)N2S(=O)(=O)c1ccc(F)cc1	SNRK (Homo sapiens, UniProt Q9NRH2)	cell-free assay, competition with immobilised ligand	1 µM		remaining binding	96%
CN(Cc1cccc(-c2ccccc2)c1)C(=O)Oc1ccc(-c2ccc(C(N)=O)cc2)cc1	mouse MPNST tumor cells	high-content immunofluorescence imaging, refers to: nuclear SOX9	10 µM, 12 h, mean of 2 replicates	baseline: DMSO control, higher = more nuclear SOX9	nuclear SOX9 intensity	101 % of DMSO

Repeated from above (study 1):
setting	patients with adverse events [%]
30 mg once daily, grade 1 maximum intensity	0
